Published values collected from several papers.
± gives the spread as reported.
KCNH2: Voltage-gated inwardly rectifying potassium channel KCNH2 (KCNH2, Homo sapiens, UniProt Q12809)
Chain of UniProt Q12809 (whole entry, looked up): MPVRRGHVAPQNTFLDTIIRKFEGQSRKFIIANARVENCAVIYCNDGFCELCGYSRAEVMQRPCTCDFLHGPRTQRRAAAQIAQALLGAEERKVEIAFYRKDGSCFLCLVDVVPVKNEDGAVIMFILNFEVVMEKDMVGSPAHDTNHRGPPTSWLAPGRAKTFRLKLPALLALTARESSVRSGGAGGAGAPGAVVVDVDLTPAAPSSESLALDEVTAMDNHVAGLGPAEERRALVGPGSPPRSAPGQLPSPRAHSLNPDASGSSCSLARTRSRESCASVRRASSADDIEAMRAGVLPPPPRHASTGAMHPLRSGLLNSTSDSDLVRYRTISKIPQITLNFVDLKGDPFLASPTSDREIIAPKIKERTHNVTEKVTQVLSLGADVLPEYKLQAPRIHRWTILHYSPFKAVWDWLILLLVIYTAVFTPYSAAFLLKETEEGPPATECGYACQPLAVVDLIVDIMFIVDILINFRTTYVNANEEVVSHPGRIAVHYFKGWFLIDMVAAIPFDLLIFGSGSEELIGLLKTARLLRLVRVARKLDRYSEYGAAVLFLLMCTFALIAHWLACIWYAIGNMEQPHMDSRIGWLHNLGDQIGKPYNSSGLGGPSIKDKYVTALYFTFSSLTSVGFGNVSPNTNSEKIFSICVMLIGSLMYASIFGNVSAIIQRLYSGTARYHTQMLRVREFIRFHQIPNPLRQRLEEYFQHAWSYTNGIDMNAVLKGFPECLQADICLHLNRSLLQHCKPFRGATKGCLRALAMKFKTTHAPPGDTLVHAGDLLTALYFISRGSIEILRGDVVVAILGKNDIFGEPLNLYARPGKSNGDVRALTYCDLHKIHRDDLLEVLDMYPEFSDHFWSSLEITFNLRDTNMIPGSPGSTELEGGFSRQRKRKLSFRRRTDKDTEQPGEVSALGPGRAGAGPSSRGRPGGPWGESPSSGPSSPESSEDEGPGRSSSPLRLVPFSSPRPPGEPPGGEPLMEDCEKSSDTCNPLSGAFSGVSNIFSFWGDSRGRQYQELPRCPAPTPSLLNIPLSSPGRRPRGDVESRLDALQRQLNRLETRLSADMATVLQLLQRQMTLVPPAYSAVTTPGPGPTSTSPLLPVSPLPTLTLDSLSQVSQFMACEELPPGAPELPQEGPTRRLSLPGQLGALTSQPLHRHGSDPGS
Chain of UniProt Q9Y6L6 (whole entry, looked up): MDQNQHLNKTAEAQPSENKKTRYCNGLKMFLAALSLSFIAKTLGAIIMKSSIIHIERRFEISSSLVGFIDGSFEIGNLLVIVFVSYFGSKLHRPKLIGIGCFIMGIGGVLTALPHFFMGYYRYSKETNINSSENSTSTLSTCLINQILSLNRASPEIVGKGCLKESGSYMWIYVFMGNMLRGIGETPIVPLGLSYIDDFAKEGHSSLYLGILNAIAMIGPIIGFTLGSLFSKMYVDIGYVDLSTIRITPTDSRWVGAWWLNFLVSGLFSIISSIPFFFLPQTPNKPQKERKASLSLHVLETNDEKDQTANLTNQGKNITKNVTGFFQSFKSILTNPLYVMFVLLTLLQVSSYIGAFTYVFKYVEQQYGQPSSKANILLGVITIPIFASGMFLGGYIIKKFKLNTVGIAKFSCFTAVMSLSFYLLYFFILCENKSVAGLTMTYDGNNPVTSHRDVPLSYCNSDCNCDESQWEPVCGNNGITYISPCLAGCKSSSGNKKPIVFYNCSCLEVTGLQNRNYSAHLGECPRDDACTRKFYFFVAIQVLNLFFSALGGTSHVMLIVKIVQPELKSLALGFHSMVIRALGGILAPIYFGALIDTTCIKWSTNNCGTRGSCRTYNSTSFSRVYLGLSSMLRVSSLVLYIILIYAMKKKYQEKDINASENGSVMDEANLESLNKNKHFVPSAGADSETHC
Chain of UniProt P20813 (whole entry, looked up): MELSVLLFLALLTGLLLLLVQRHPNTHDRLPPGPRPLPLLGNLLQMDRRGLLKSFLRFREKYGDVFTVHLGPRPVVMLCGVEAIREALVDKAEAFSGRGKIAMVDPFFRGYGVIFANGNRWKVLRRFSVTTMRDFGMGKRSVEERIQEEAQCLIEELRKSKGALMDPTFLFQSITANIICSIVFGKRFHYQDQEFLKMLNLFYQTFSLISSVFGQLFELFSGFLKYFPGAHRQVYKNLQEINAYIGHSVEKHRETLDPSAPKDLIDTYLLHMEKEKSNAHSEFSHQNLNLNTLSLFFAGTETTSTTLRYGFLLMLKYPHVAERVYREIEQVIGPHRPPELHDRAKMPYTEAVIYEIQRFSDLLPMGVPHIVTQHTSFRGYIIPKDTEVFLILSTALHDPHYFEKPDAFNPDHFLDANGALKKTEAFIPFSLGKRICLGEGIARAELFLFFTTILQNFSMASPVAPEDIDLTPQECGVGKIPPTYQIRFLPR

SMILES	target or system	assay	test system	setting	scale	endpoint	result
COC(=O)CC1C2CCCN3CCCC(CN1Cc1ccc(Cl)cc1)C23 (stereo not shown)	HEK293T					CC50	> 200 µM
Cc1nc(=O)c2cc(CN(C)c3ccc(C(=O)NCc4cccc(C(=O)O)c4)s3)ccc2[nH]1	Mycobacterium tuberculosis		H37Rv	10 µM, 24 h		uptake from medium	55.4 ± 7.4%
Nc1nc2c([C@@H]3O[C@@H]4COP(=O)(O)O[C@H]5[C@@H](O)[C@H](n6cnc7c(=O)[nH]c(N)nc76)O[C@@H]5COP(=O)(O)O[C@H]4[C@H]3O)scc2c(=O)[nH]1					reference: parent monomeric nucleoside	relative emission quantum yield	~39%
CC[C@H](C)C(=O)N1CCC(NC(=O)Nc2ccc(OC(F)(F)F)c(F)c2)CC1			healthy volunteers	oral, 8 mg single dose		subjects with limb injury TEAE	16.7%
C=CC(=O)Nc1cc(Nc2nccc(-c3cn(C)c4ccccc34)n2)c(OCC(F)(F)F)nc1N(C)CCN(C)C	Cytochrome P450 2B6 (CYP2B6, Homo sapiens, UniProt P20813)	enzyme activity, inhibitor	human, liver microsomes	3.33 µM		activity vs control	102%
O=C(O)CC1C2CCCN3CCCC(CN1CCc1ccc(Cl)cc1)C23 (stereo not shown)	HEK293T					CC50	83.3 µM
COc1cc(C(=O)NCCOCCOCCOCCNC(=O)c2ccc([18F])nc2)ccc1NC(=O)C1NC(CC(C)(C)C)C(C#N)(c2ccc(Cl)cc2F)C1c1cccc(Cl)c1F (stereo not shown)	HepG2 tumour model		host not given, kidney	30 min, tumour-bearing		tracer uptake	15 %ID/g
CC(CCC(=O)NCC(=O)O)C1CCC2C3CCC4CC(OC5OC(C(=O)O)C(O)C(O)C5O)CCC4(C)C3CC(O)C12C (stereo not shown)	SLCO1B1 (Homo sapiens, UniProt Q9Y6L6)	substrate			reference: OATP1B1 over OATP1B3 or OATP2B1	uptake ratio	≥ 6
CCC(=O)N(C)c1ccc(Cl)c(Cl)c1	Salmonella typhimurium	Ames test	TA1537	0.50 mg/plate, without S9 activation		revertants	1 ± 0.6 revertants/plate
CC[N+](C)(CC)Cc1cc(Nc2ccnc3cc(Cl)ccc23)ccc1O	BHK-21 DENV2 replicon cells			24 h		CC50	36 ± 5.04 µM
C[C@@](O)(C(F)F)[C@H](NC(=O)c1ccc(C#CC#CC2CC2)cc1)C(=O)NO			dog, plasma	oral, 50 mg/kg		CL/F	3.06 L/h/kg
CN[C@](C)(C[18F])C(=O)O	A549 tumour model		host not given, liver	2 h, tumour-bearing		tracer uptake	2.3 %ID/g
COc1ccc(CNc2nc(N3CCC[C@H]3CO)ncc2C(=O)NN)cc1Cl	Salmonella typhimurium		TA97a	250 µg/plate, 48 h, added: rat liver S9		revertant count	178 ± 14
CN(C)CC1CCCCC1(O)c1cccc(O)c1 (stereo not shown)	P-glycoprotein		Caco-2 TC7	1 µM, 3 h, pH 7.4, added: cyclosporin A 10 µM		Papp A to B	182 ± 5 nm/s
N[C@]1(c2ccccc2Cl)CCC[C@H](O)C1=O			Wistar rat, plasma	intravenous, 20 mg/kg		AUC(0-t)	29 ± 6.16 µg·h/mL
COc1ccc(CNc2nc(N3CCC[C@H]3CO)ncc2C(=O)NNC(=O)c2cnc(N3CCC[C@H]3CO)nc2NCc2ccc(OC)c(Cl)c2)cc1Cl	Salmonella typhimurium		TA1535	1000 µg/plate, 48 h		revertant count	41 ± 2
COC(=O)CCCC1C2CCCN3CCCC(CN1C(=O)c1ccc(Cl)cc1)C23 (stereo not shown)	HEK293T					CC50	> 200 µM
O=C(O)CCC(NP(=O)(O)OCCC[C@@H](NC(=O)CCC(NC(=O)c1ccc([18F])cc1)C(=O)O)C(=O)O)C(=O)O (stereo partly shown)	PC-3 tumour model		host not given, tumour	intravenous, 2 h, tumour-bearing		tracer uptake	0.4 %ID/g
CC[C@H](C)[C@H](NC(=O)[C@H](CC(=O)O)NC(=O)[C@@H](NC(=O)[C@@H]1CCCN1C(=O)[C@H](CCCNC(=N)N)NC(=O)CCc1cn(CCOCCOCCOCCNC(=O)CCCCC[N+]2=C(/C=C/C=C/C=C3/N(C)c4ccccc4C3(C)C)C(C)(C)c3ccccc32)nn1)[C@@H](C)O)C(=O)N[C@@H](CCCCN)C(=O)N[C@H]1CSSC[C@@H]2NC(=O)[C@H](CCCNC(=N)N)NC(=O)CNC(=O)[C@H](CC(N)=O)NC(=O)[C@H]([C@@H](C)O)NC(=O)[C@H](CCCCN)NC(=O)CNC(=O)[C@H](Cc3ccccc3)NC(=O)[C@H](CCCNC(=N)N)NC(=O)[C@H](CO)NC(=O)[C@H](CCCCN)NC(=O)[C@@H]3CSSC[C@@H](C(=O)N[C@@H](Cc4ccccc4)C(=O)O)NC(=O)[C@H](CC(=O)O)NC(=O)[C@H](CSSC[C@H](NC(=O)[C@H](CCC(N)=O)NC(=O)[C@H](Cc4ccc(O)cc4)NC(=O)[C@H](CO)NC(=O)[C@H](CCC(=O)O)NC(=O)[C@H](CO)NC1=O)C(=O)N[C@@H](Cc1ccccc1)C(=O)N1CCC[C@H]1C(=O)N[C@@H](C(C)C)C(=O)N3)NC(=O)[C@H](Cc1ccccc1)NC(=O)CNC(=O)[C@H](CC(N)=O)NC(=O)[C@H](C(C)C)NC2=O	KCNH2	ion current, two-electrode voltage clamp	Xenopus laevis oocytes			Hill coefficient	0.8 ± 0.1
O=C1C(Cl)=C(Cl)C(=O)c2ccccc21	CRFK	cell growth or viability, ATP luminescence		72 h		CC50	36.7 µM
O=C(O)CCC(NP(=O)(O)OCCC[C@@H](NC(=O)CCC(NC(=O)CCCCCNC(=O)CCCCCNC(=O)c1ccc([18F])cc1)C(=O)O)C(=O)O)C(=O)O (stereo partly shown)	PC-3 tumour model		host not given, kidney	intravenous, 2 h, tumour-bearing		tracer uptake	4.44 %ID/g
CC[C@H](C)[C@H](NC(=O)[C@H](CC(=O)O)NC(=O)[C@@H](NC(=O)[C@@H]1CCCN1C(=O)[C@H](CCCNC(=N)N)NC(=O)CCCCCCCCc1cn(CCOCCOCCOCCOCCOCCNC(=O)CCCCC[N+]2=C(/C=C/C=C/C=C3/N(C)c4ccccc4C3(C)C)C(C)(C)c3ccccc32)nn1)[C@@H](C)O)C(=O)N[C@@H](CCCCN)C(=O)N[C@H]1CSSC[C@@H]2NC(=O)[C@H](CCCNC(=N)N)NC(=O)CNC(=O)[C@H](CC(N)=O)NC(=O)[C@H]([C@@H](C)O)NC(=O)[C@H](CCCCN)NC(=O)CNC(=O)[C@H](Cc3ccccc3)NC(=O)[C@H](CCCNC(=N)N)NC(=O)[C@H](CO)NC(=O)[C@H](CCCCN)NC(=O)[C@@H]3CSSC[C@@H](C(=O)N[C@@H](Cc4ccccc4)C(=O)O)NC(=O)[C@H](CC(=O)O)NC(=O)[C@H](CSSC[C@H](NC(=O)[C@H](CCC(N)=O)NC(=O)[C@H](Cc4ccc(O)cc4)NC(=O)[C@H](CO)NC(=O)[C@H](CCC(=O)O)NC(=O)[C@H](CO)NC1=O)C(=O)N[C@@H](Cc1ccccc1)C(=O)N1CCC[C@H]1C(=O)N[C@@H](C(C)C)C(=O)N3)NC(=O)[C@H](Cc1ccccc1)NC(=O)CNC(=O)[C@H](CC(N)=O)NC(=O)[C@H](C(C)C)NC2=O	KCNH2	ion current, inhibitor, two-electrode voltage clamp		pH 7.4, oocytes		IC50	0.0641 µM
O=C(O)CCC(NP(=O)(O)OCCC[C@@H](NC(=O)CCC(NC(=O)CCCCCNC(=O)c1ccc([18F])cc1)C(=O)O)C(=O)O)C(=O)O (stereo partly shown)	PC-3 tumour model		host not given, bone	intravenous, 2 h, tumour-bearing		tracer uptake	0.17 %ID/g
CCc1ccc(Nc2c(NC3CCN(Cc4ccccc4)CC3)c(=O)c2=O)cc1	SH-SY5Y	MTT		12.5 µM, 24 h		viability	67.6 ± 2.11%
CC(C)C[C@H](NC(=O)[C@H](CCCCN)NC(=O)[C@H](CC(C)C)NC(=O)[C@H](CC(C)C)NC(=O)[C@H](CCCCN)NC(=O)[C@H](CCCCN)NC(=O)[C@H](CC(C)C)NC(=O)[C@H](CC(C)C)NC(=O)[C@H](CCCCN)NC(=O)[C@H](CC(C)C)NC(=O)[C@H](CC(C)C)NC(=O)[C@H](CCCCN)NC(=O)[C@H](CCCCN)NC(=O)[C@H](CC(C)C)NC(=O)[C@@H](N)CSSC[C@H](N)C(=O)N[C@@H](CC(C)C)C(=O)N[C@@H](Cc1c[nH]cn1)C(=O)N[C@@H](CCC(=O)O)C(=O)N[C@@H](CC(C)C)C(=O)N[C@@H](CC(C)C)C(=O)N[C@@H](CCC(=O)O)C(=O)N[C@@H](Cc1c[nH]cn1)C(=O)N[C@@H](CC(C)C)C(=O)N[C@@H](Cc1c[nH]cn1)C(=O)N[C@@H](CCC(=O)O)C(=O)N[C@@H](CC(C)C)C(=O)N[C@@H](CC(C)C)C(=O)N[C@@H](CCC(=O)O)C(=O)N[C@@H](Cc1c[nH]cn1)C(N)=O)C(N)=O	mouse erythrocytes			200 µM, 1 h, 37 °C	reference: Triton X-100	hemolysis	~22.2%

A few entries again:
SMILES	target or system	assay	test system	setting	scale	endpoint	result
N[C@]1(c2ccccc2Cl)CCC[C@H](O)C1=O			Wistar rat, plasma	intravenous, 20 mg/kg		AUC(0-t)	29 ± 6.16 µg·h/mL
O=C(O)CC1C2CCCN3CCCC(CN1CCc1ccc(Cl)cc1)C23 (stereo not shown)	HEK293T					CC50	83.3 µM
